# Measurements pooled from the literature.
# Protocols differ between the studies behind these lines. “And” joins repeats or separate records; there may be more than shown. ± gives the spread as reported.
Substance,target or system,test,test system,setting,scale,endpoint,value
COc1cccc2c1C(=O)c1c(O)c3c(c(O)c1C2=O)C[C@@](O)(C(C)=O)C[C@@H]3O[C@H]1C[C@H](N)[C@H](O)[C@H](C)O1,,,"BALB/c mouse, plasma","intravenous, 10 mg/kg",,elimination half-life,0.61 ± 0.01 h
CC(C)(O)CNc1nc(Nc2ccnc(C(F)(F)F)c2)nc(-c2cccc(C(F)(F)F)n2)n1,,,human patients,"oral, 100 mg once daily, cycle 1 day 1, together with: consolidation chemotherapy",,mean Cmax,9780 ng/mL
CC[C@H](C)[C@H](NC(=O)[C@H](Cc1ccccc1)NC(=O)[C@H](CCC(=O)O)NC(=O)[C@H](CCCCNC(=O)COCCOCCNC(=O)COCCOCCNC(=O)CC[C@H](NC(=O)CCCCCCCCCCCCCCCCC(=O)O)C(=O)O)NC(=O)[C@H](C)NC(=O)[C@H](C)NC(=O)[C@H](CCC(N)=O)NC(=O)CNC(=O)[C@H](CCC(=O)O)NC(=O)[C@H](CC(C)C)NC(=O)[C@H](Cc1ccc(O)cc1)NC(=O)[C@H](CO)NC(=O)[C@H](CO)NC(=O)[C@@H](NC(=O)[C@H](CC(=O)O)NC(=O)[C@H](CO)NC(=O)[C@@H](NC(=O)[C@H](Cc1ccccc1)NC(=O)[C@@H](NC(=O)CNC(=O)[C@H](CCC(=O)O)NC(=O)C(C)(C)NC(=O)[C@@H](N)Cc1cnc[nH]1)[C@@H](C)O)[C@@H](C)O)C(C)C)C(=O)N[C@@H](C)C(=O)N[C@@H](Cc1c[nH]c2ccccc12)C(=O)N[C@@H](CC(C)C)C(=O)N[C@H](C(=O)N[C@@H](CCCNC(=N)N)C(=O)NCC(=O)N[C@@H](CCCNC(=N)N)C(=O)NCC(=O)O)C(C)C,,,Caucasian subjects,"subcutaneous once weekly, 1.0 mg, geometric mean",reference: steady state over single dose,dose-corrected accumulation ratio,2.31
O=C(C1CC1)n1nc(C(F)(F)F)c2cccnc21,,chemical stability,aqueous buffer,pH 7.4,,half-life,> 4 h
CCc1cc2cc(OC)cc(C(=O)c3ccc(OC)cc3)c2o1,,metabolic stability,"Sprague-Dawley rat, liver microsomes","1 µM, pH 7.4",,microsomal CLint,549 µL/min/mg
O=C(O)c1cn(C2CC2)c2cc(N3CCNCC3)c(F)cc2c1=O,,"cytochrome c release, ELISA",BALB/cByJ female mouse liver mitochondria,30 min,reference: alamethicin maximal release,EC20,> 400 µM
[2H]C([2H])([2H])Oc1cc2c(cc1OC([2H])([2H])[2H])C1CC(=O)C(CC(C)C)CN1CC2 (stereo not shown),,refers to: deuterated β-HTBZ,"healthy human volunteers, plasma","oral, 6 mg single dose, standard meal",,dose-normalized AUC(0-inf),4.8 ng·h/mL
O=C(O)c1cc(O)c(O)c(O)c1,,mitochondrial swelling,BALB/cByJ female mouse liver mitochondria,"30 min, together with: succinate + rotenone",reference: CaCl2 maximal swelling,EC20,> 200 µM
CN(C)Cc1cc(OCCC[18F])ccc1Sc1ccccc1N,SERT,,"male Sprague Dawley rat, control, striatum","intravenous, 60 min",,tissue uptake,0.53 ± 0.09 %ID/g
Cn1c(=O)c2c(ncn2C)n(C)c1=O,,parallel tube model,human,from oral clearance,,intrinsic hepatic clearance,16 L/h and 16.1 L/h
O=c1[nH]c(=O)c(Cc2cccc(C(F)(F)F)c2)c([C@H]2CC[C@H](c3ccccc3)CC2)[nH]1,,,"human, plasma","oral, 150 mg once daily, day 7, geometric mean",,Cmax,142 ng/mL
Cn1c(-c2ccc(C(N)=O)cc2F)nnc1C(C)(C)Oc1c(F)cc(Cl)cc1F,,,"healthy young Japanese subjects, plasma","oral, 50 mg once daily, day 18, 14 days dosing",,AUC(0-tau) range,1200 to 13200 ng·h/mL
Cc1cccc(Nc2ccccc2C(=O)O)c1C,,"cytochrome c release, ELISA",BALB/cByJ female mouse liver mitochondria,30 min,reference: alamethicin maximal release,EC20,> 200 µM
ciclosporin,,dialysis,phosphate buffer,"52 h, pH 7.4, room temperature",,drug release,< 4%
COc1cc2c(cc1OC)CN(CCc1ccc(NC(=O)c3cc(OC)c(OC)cc3NC(=O)c3cnc4ccccc4c3)cc1)CC2,,,Wistar Unilever rat,"intravenous, 15 mg/kg, 3 h",,brain concentration,4130 ± 1640 ng/mL
CO[C@H]1C[C@@H]2CC[C@@H](C)[C@@](O)(O2)C(=O)C(=O)N2CCCC[C@H]2C(=O)O[C@H]([C@H](C)C[C@@H]2CC[C@@H](OC(=O)C(C)(CO)CO)[C@H](OC)C2)CC(=O)[C@H](C)/C=C(\C)[C@@H](O)[C@@H](OC)C(=O)[C@H](C)C[C@H](C)/C=C/C=C/C=C/1C,,,"human, whole blood","intravenous, 35 mg/m2 weekly, cycle 5, together with: valproic acid",,median Cmax,1090 ng/mL
CCCC[C@H](NC(=O)CN1CCN(CC(=O)O)CCN(CC(=O)O)CCN(CC(=O)O)CC1)C(=O)N[C@H]1CC(=O)NCCCC[C@@H](C(N)=O)NC(=O)[C@H](Cc2c[nH]c3ccccc23)NC(=O)[C@H](CCCNC(=N)N)NC(=O)[C@@H](Cc2ccccc2)NC(=O)[C@H](Cc2c[nH]cn2)NC1=O [indium-111 labelled],,,"B16/F1 melanoma C57 mice, tumour",4 h,reference: 99mTc(CO)3-pz-βAla-Nle-cyclo[Asp-His-D-Phe-Arg-Trp-Lys]-NH2,tumour uptake ratio,1.5
COc1cccc2c1C(=O)c1c(O)c3c(c(O)c1C2=O)C[C@@](O)(C(=O)CO)C[C@@H]3O[C@H]1C[C@H](N)[C@H](O)[C@H](C)O1,,"cytochrome c release, ELISA",BALB/cByJ female mouse liver mitochondria,30 min,reference: alamethicin maximal release,EC20,23.3 µM
Cc1cnn2ncc(-c3ccnc(N(C)C)n3)c2c1,,,rat liver microsomes,,,intrinsic clearance,164 µL/min/mg
COc1ccc(C=CC(=O)O)cc1OS(=O)(=O)O,,,"human, fasted baseline, cerebrospinal fluid",,,mean concentration,12.9 nM
CC(=O)N1CCN(c2ccc(OCC3COC(Cn4ccnc4)(c4ccc(Cl)cc4Cl)O3)cc2)CC1 (stereo not shown),,mitochondrial swelling,BALB/cByJ female mouse liver mitochondria,"30 min, together with: succinate + rotenone",reference: CaCl2 maximal swelling,EC20,> 400 µM
Oc1ccc(C(c2ccc(O)cc2)(C(F)(F)F)C(F)(F)F)cc1,,,"female rat, plasma","oral, 110 mg/kg, single dose",,bioavailability,1%
CC(=O)N[C@H](CSSC[C@H](N)C(=O)O)C(=O)N[C@H](C)C(=O)N[C@H](CCCNC(=N)N)C(=O)N[C@H](CCCNC(=N)N)C(=O)N[C@H](CCCNC(=N)N)C(=O)N[C@H](C)C(=O)N[C@H](CCCNC(=N)N)C(N)=O,,,human whole blood,,reference: SAPC formation over reverse,rate ratio,18 fold
CC(C)[C@H](NC(=O)[C@@H]1CCCN1C(=O)[C@H](CCCNC(=N)N)NC(=O)[C@H](CS)NC(=O)[C@H](Cc1c[nH]c2ccccc12)NC(=O)[C@H](CCCNC(=N)N)NC(=O)[C@@H](Cc1ccccc1)NC(=O)[C@H](Cc1c[nH]cn1)NC(=O)[C@H](CCC(=O)O)NC(=O)[C@H](CS)NC(=O)[C@H](CS)NC(=O)[C@H](CCCCN)NC(=O)[C@@H]1CC(=O)N[C@@H](CCCNC(=N)N)C(=O)N[C@@H](C(C)C)C(=O)N[C@@H](CC(=O)O)C(=O)N[C@H](Cc2ccc(O)cc2)C(=O)N1)C(N)=O [technetium-99m labelled],,,"C57 mouse, female, B16/F1 melanoma","intravenous, 2 h, together with: NDP-MSH 10 µg co-injected",reference: tumour over lung,uptake ratio,1.82
CCCC[C@H](NC(C)=O)C(=O)N[C@H]1CCC(=O)NC[C@@H](C(=O)N[C@@H](Cc2c[nH]c3ccccc23)C(N)=O)NC(=O)[C@H](CCCNC(=N)N)NC(=O)[C@@H](Cc2ccccc2)NC(=O)[C@H](Cc2c[nH]cn2)NC1=O,,,"CD Sprague-Dawley rat, male, plasma","subcutaneous, 25.0 mg/kg/day, day 1",,Cmax,666 ng/mL
O=C(O)c1cc(-c2ccc(F)cc2F)ccc1O,,mitochondrial swelling,BALB/cByJ female mouse liver mitochondria,"30 min, together with: succinate + rotenone",reference: CaCl2 maximal swelling,EC20,> 200 µM
COC(=O)C[C@](O)(CCCC(C)(C)O)C(=O)O[C@@H]1C(OC)=C[C@]23CCCN2CCc2cc4c(cc2[C@H]13)OCO4,,,"CD1 mouse, large intestine","oral, 1 mg/kg, 24 h, below quantification limit 1.00 ng/mL",,tissue concentration,not detected
CNCc1ccc(-c2[nH]c3cc(F)cc4c3c2CCNC4=O)cc1,,,"human, plasma","oral, 40 mg once daily, 24 h, steady state, mean",,AUC(0-t),1050 ng·h/mL
O=C(NC[C@H]1CN(c2ccc(N3CCOCC3=O)cc2)C(=O)O1)c1ccc(Cl)s1,,,moderate renal impairment patients,"oral, 10 mg, arithmetic mean",,renal clearance,9.9 mL/min
COc1cccc(N2CCN(C3=Nc4c(F)cccc4[C@H](CC(=O)O)N3c3cc(C(F)(F)F)ccc3OC)CC2)c1,,UHPLC-MS/MS,"healthy women, plasma","intravenous infusion, 120 mg single dose, 30 min infusion, HPβCD formulation",,AUC(0-last),13600 ± 3800 ng·h/mL
CCCCCN1C[C@H](O)[C@@H](O)[C@H](O)[C@@H]1CO,,,"human males, plasma","oral, dose not given, distribution phase, single dose",,concentration decrease from Cmax,> 98%
C[C@]12CC[C@@H]3c4ccc(O)cc4CC[C@H]3[C@@H]1C[C@@H](O)[C@@H]2O,,GC-MS,"breast cancer women on NSAI, serum","vaginal, 0.03 mg, 24 h, day 0",,maximum serum concentration,0 ng/mL
CC[C@H](C)[C@H](NC(=O)[C@H](CCCCN)NC(=O)[C@@H](NC(=O)[C@H](CC(N)=O)NC(=O)[C@H](CCCNC(=N)N)NC(=O)[C@H](CCCNC(=N)N)NC(=O)[C@H](CC(N)=O)NC(=O)[C@H](CCCNC(=N)N)NC(=O)[C@H](CCCNC(=N)N)NC(=O)[C@@H](NC(=O)[C@H](CO)NC(=O)[C@@H](NC(=O)[C@H](CS)NC(=O)[C@H](CCCCN)NC(=O)[C@@H](N)CCCNC(=N)N)[C@@H](C)CC)C(C)C)[C@@H](C)CC)C(=O)N[C@@H](CS)C(=O)N[C@@H](CC(N)=O)C(=O)O,,LC-MS,PBS,0.1 mg/mL,,single disulfide form,98%
Cc1cc2nc3c(=O)[nH]c(=O)nc-3n(C[C@H](O)[C@H](O)[C@H](O)CO)c2cc1C,,"cytochrome c release, ELISA",BALB/cByJ female mouse liver mitochondria,30 min,reference: alamethicin maximal release,EC20,> 400 µM
CC(C)NC(=O)COc1cccc(-c2nc(Nc3ccc4[nH]ncc4c3)c3ccccc3n2)c1,,,"male C57BL/6 mouse, plasma","oral, 100 mg/kg, one-compartment model",,Tmax,1.21 h
COc1cccc(-c2ccc(NC(=O)C3=C(C(=O)O)CCC3)c(F)c2)c1,,,"human, male, plasma","oral, 50 mg once daily, day 13, geometric mean, not pre-dosed",,AUC(0-24h),167000 ng·h/mL
CS(=O)(=O)n1cc2c(n1)CN([C@H]1CO[C@H](c3cc(F)ccc3F)[C@@H](N)C1)C2,,,"healthy Japanese men, plasma","oral, 10 mg single dose, fed, geometric mean",,AUC(0-168 h),8.75 µM·h

# Some of these lines once more:
Substance,target or system,test,test system,setting,scale,endpoint,value
O=c1[nH]c(=O)c(Cc2cccc(C(F)(F)F)c2)c([C@H]2CC[C@H](c3ccccc3)CC2)[nH]1,,,"human, plasma","oral, 150 mg once daily, day 7, geometric mean",,Cmax,142 ng/mL
Cn1c(-c2ccc(C(N)=O)cc2F)nnc1C(C)(C)Oc1c(F)cc(Cl)cc1F,,,"healthy young Japanese subjects, plasma","oral, 50 mg once daily, day 18, 14 days dosing",,AUC(0-tau) range,1200 to 13200 ng·h/mL
